Measurements from different studies.
Every numbered part comes from another study and shows a few of its results, in no order.

Set 1 — method: RNA Bind-n-Seq; molecule type: RNA; sample: in vitro; tested at: not given; reference: input RNA pool; reading: higher = stronger binding
Target: RING finger protein unkempt homolog, zinc fingers 1-6, GST-SBP tag (UNK, Homo sapiens, UniProt Q9C0B0, residues 30-357)
Sequence of UniProt Q9C0B0 (30-357, looked up): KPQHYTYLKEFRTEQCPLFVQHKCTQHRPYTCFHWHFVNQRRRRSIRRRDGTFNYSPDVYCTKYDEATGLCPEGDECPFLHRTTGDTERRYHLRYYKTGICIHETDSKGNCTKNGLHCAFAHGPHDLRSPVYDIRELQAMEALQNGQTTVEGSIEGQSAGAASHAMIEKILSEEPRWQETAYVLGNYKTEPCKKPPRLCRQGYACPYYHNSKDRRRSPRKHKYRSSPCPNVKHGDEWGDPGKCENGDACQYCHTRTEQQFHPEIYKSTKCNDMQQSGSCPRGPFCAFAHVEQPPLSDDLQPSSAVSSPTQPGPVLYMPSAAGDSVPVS
Setting: RNA with constant flanks, human-mouse chimeric sites, ends assumed
Constant ends, left off below: GGGAGUUCUACAGUCCGACGAUC … CAACAGAGGAUUGAGCAUCA
Oligonucleotide | bound/input enrichment
AAAGUGAUGACUAUGUUUGUCCAACGACAGGUGUUUGCGGAGAGCAAAGAUGAGAUUGCGUUAGUCCUCUAUGGCACAGAUGGCACUGACAAUCCCCUUGCUGGCAAGGACCAGUAUCAG | 0.188 ratio
UACUCAACUUUCUUGCCACGUUUUGAAUUCCAAGACAUUAUCCCUCCAGAUGACUUCCUAACGAGUGAUGAAGAGCAAGAUUUGGUUUUAUUUGGAACUAUGAGAGGACAAGUUGUUGGA | 0.208 ratio
UAUCCAACUUUCUUGCCACAUUUUGAAUUCCAAGACAUUAUUCCUCCAGAUGACUUCCUAACGAGUGAUGAAGAGCAAGAUUCCGUUUUAUUUGGAACUAUGAGAGGACAAGUUGUUGGA | 0.162 ratio
UAACCACAUCAAGAUGGUUGGGAAGCUGAAGCAGAACUUACUCUUGGCGUGUCUGGUGAUUAGUUCUGUGACUGUGUUUUACCUGGGCCAGCAUGCCAUGGAGUGCCAUCACCGGAUAGA | 0.278 ratio
GAAAGAGAACUAAAGCAACUAAUAGAGAAGAGGAUUGGCAAAGAGAAUUUCAUAGAGAAACUAGGAUUUAUUAGCAAACAUGAGUUAUAUUCCAGAGGCAUCUCAGAACCCCAGCCAAAC | 10 ratio
UUUCUAUUGCAGCAAACGAUGCUAAGAAUUAAGGAUCCUAAGAAGUCCCUGGAUUUUUAUACUAGAGUUCUUGGACUGACCCUCCUGCAGAAGCUUGACUUCCCUGCUAUGAAGUUCUCG | 0.453 ratio
GGGGAGAAACCUUAUGAGUGUGUGCAGUGUGGGAAAUCCUACAGUCAGAGCUCAAACCUCUUCAGACAUCAGAGACGACACAAUGCAGAAAAACUUUUGAAUGUUGUGAAGGUUUAAGAA | 0.252 ratio
UGGCGCCUGCGCUCCCCACUCGUGUUUUUAAGUGUAUAAGAUGUAUAUACAUGUAUUUACAAUUGAGCUUUUGUUACUAUAAUACUGAAUGCUACUGGAGAUUAUGAAAAAUGUUUCAAU | 0.148 ratio

Set 2 — method: protein-binding microarray; molecule type: hairpin DNA; sample: in vitro; tested at: not given; reference: not given; reading: higher = stronger binding
Target: Cyclic AMP-responsive element-binding protein 1, full length (CREB1, Homo sapiens, UniProt P16220, residues 1-327)
Sequence of UniProt P16220 (whole entry, looked up): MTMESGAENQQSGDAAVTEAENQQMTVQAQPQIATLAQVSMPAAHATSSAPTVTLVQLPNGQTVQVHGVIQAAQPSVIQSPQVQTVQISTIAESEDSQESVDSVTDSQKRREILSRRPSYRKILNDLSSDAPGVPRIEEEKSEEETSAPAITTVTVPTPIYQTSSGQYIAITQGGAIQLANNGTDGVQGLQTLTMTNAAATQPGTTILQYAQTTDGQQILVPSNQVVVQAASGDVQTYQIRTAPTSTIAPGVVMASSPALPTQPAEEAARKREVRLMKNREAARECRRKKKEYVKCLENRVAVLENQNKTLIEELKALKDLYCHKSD
Setting: whole hairpin DNA, median over replicate spots
Oligonucleotide | median fluorescence [a.u.]
GAGGCCGGATCGCGTCAGCCTCCTGGCTGACGCGATCCGGCCTCACACTC | 3900
GAGGCCGACGACGTTGTGCCTCCTGGCACAACGTCGTCGGCCTCACACTC (5mC at 9 29 35) | 4800
GAGGCCGGCTGACGCCAGCCTCCTGGCTGGCGTCAGCCGGCCTCACACTC (5mC at 15) | 6930
GAGGCCGACGACGTGGTGCCTCCTGGCACCACGTCGTCGGCCTCACACTC (5mC at 9 29 35) | 5200
GAGGCCGGATGACGTCCGCCTCCTGGCGGACGTCATCCGGCCTCACACTC (5mC at 17) | 7570
GAGGCCTGCTGACGTCAGCCTCCTGGCTGACGTCAGCAGGCCTCACACTC | 16800
GAGGCCGGATGCGGTCAGCCTCCTGGCTGACCGCATCCGGCCTCACACTC (5mC at 32) | 2800
GAGGCCGCGGACGTCGTGCCTCCTGGCACGACGTCCGCGGCCTCACACTC (5mC at 8 15 29 35) | 3560
GAGGCCGGCTGCGGTCAGCCTCCTGGCTGACCGCAGCCGGCCTCACACTC (5mC at 12 32) | 2620
GAGGCCGGATGACGTCAGCCTCCTGGCTGACGTCATCCGGCCTCACACTC | 22900
GAGGCCGGCTGACGTCGGCCTCCTGGCCGACGTCAGCCGGCCTCACACTC | 5400
GAGGCCGACGACTTCGTGCCTCCTGGCACGAAGTCGTCGGCCTCACACTC (5mC at 9 15 29 35) | 2580
GAGGCCGGATGACCGCAGCCTCCTGGCTGCGGTCATCCGGCCTCACACTC | 3150
GAGGCCGATGACGTCGTGCCTCCTGGCACGACGTCATCGGCCTCACACTC (5mC at 15 29 35) | 4780
GAGGCCGGATGATGTCAGCCTCCTGGCTGACATCATCCGGCCTCACACTC | 5030
GAGGCCGACGACGTCGAGCCTCCTGGCTCGACGTCGTCGGCCTCACACTC (5mC at 9 15 29 35) | 3730
GAGGCCGGCTGATGTCAGCCTCCTGGCTGACATCAGCCGGCCTCACACTC | 3370
GAGGCCGGATGACGCCAGCCTCCTGGCTGGCGTCATCCGGCCTCACACTC (5mC at 15) | 15300
GAGGCCGGATCGCGTCAGCCTCCTGGCTGACGCGATCCGGCCTCACACTC (5mC at 11 33) | 5120
GAGGCCGGTTGACGTCAGCCTCCTGGCTGACGTCAACCGGCCTCACACTC | 9770
GAGGCCGGACGACGTCAGCCTCCTGGCTGACGTCGTCCGGCCTCACACTC | 5330
GAGGCCCGCTGACGTCAGCCTCCTGGCTGACGTCAGCGGGCCTCACACTC (5mC at 7 37) | 13300

Set 3 — method: RNA Bind-n-Seq; molecule type: RNA; sample: in vitro; tested at: 365 nM; reference: no-protein control; reading: higher = stronger binding
Target: RNA binding protein fox-1 homolog 2, RRM domain, GST-SBP tag (RBFOX2, Homo sapiens, UniProt O43251-10, residues 100-194)
Setting: natural RNA segment, single round, ends assumed
Constant ends, left off below: GGGAGUUCUACAGUCCGACGAUC … UGGAAUUCUCGGGUGCCAA
Construct (chain): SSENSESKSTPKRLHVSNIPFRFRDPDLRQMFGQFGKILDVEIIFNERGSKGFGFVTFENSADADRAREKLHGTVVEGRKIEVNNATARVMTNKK
Oligonucleotide | RBNS enrichment (R)
GAGUGGUGGGUAUUGAUUAGGCCAUCAUUUCAAGAGAGUAGAUGCUAAGUUGGAUUUCGUGCUGCUGUAAAUUGGAACUGUCGACUCUAAGUGCCUUUACUUAGGAAAAG | 0.815
ACAGCAGAAGAGGAAUGUCGCCCACUGAGGCCACCCAGAUGCAGAGUCUAGGAUUCCUUGCCCACUGGCCUUUUGGAAAUGAAGCACCACUGGCCUGAAUAAUUAGCCUU | 0.406
CAGCUACUUUGUGUUGAACACAAUUGAUUCUCCAGGUGCUCAUGGUGCAGGAAAACAGGACAGACAGAGAGCACCUGAACCCUUGCCAUCUGAUGUCACCAAUUCAGGAA | 0.749
GAGCGGCCCAGCUCUGGGGGGCACGAGGUCACCUCCGAUGCCACUUACCAGCCUUUCUGAUUCUUUUUUAGCUCCCCGAUUGUCUACCCCGCAUCCCUGGUCACAUGCCC | 0.465
CAAUCACUAUUCUUAAGCACUUUGAAAAUAUUUCUAUGUAAAUUAUUGUAAACUUUUUCAAUGGUUGGGACAAUGGCAAUAGGACAAAACGGGUUACUAAGAUGAAAUUG | 0.411
CUCUGUACACAUUUUUAAACCUGGCAAAAGAUGAAGAGAAUAUUGUAAAUAUAAAAGUUUAACUGUUGGUUGUGCCUGCUCUGUUGUGGGGAGGGCGGUCUCUAAAGAAA | 0.711
GACAGCAACAAGAUUUUAAUCACCUGGUCACCAGACCCUCACGGCCCAUAUCCAAUUCGAAUUUCAGAAAUUUCUCUGUUUGCUUUAAAUAACUCUUUACAAAUAAGGGU | 0.557
AGUCAGUCUACCGUAUAGUAACACUGUAUGUCAGUCUACAGACCACACUCUAGUUGUUUUCCAUGAAAGGUAUACAAAUGAAGAAUUUUCUAGCAAAACAUGUUUUUAAC | 0.352

Set 4 — method: protein-binding microarray; molecule type: double-stranded DNA, one strand shown; sample: in vitro; tested at: 2540 nM top; setting: 60-bp whole probe; together with: salmon DNA 0.4 mg/ml; reference: random background probes; reading: higher = stronger binding; constant ends, left off below: GCCTAGCAC … GTCTTGATTCGCTTGACGCTGCTG
Target: Interferon regulatory factor 3, full length, phosphomimetic (IRF3, Homo sapiens, UniProt Q14653, residues 1-427, S386D/S396D/S398D/S402D/T404D/S405D)
Target sequence (chain): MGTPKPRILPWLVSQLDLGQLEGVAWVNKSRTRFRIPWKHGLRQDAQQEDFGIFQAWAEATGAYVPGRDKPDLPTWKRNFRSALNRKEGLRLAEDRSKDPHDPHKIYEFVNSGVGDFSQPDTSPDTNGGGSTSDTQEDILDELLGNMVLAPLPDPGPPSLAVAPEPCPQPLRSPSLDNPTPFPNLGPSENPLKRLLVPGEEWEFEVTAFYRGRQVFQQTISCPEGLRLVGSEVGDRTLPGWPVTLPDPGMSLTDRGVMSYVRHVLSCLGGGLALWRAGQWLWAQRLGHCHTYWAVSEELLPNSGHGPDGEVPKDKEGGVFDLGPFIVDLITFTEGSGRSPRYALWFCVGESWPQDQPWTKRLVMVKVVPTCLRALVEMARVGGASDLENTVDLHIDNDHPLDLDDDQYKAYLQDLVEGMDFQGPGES
Oligonucleotide | fitted relative affinity [z-score]
TTAGGCATCGGGTATCGGTTAGTGCTA | -0.0269
TCAAAGATCATTCTCACACTGTGCTAG | 0.936
AACGATATCAGTCTCGAGACGTGCTAG | 1.13
TTAGTACTGCTACTGCTTTAGTGCTAG | -0.274
TTAGGACTGCTACTGCATTAGTGCTAG | -0.513
GTCGGTCTCGGTTTCGGGACGTGCTAG | 4.63
ACGCATGTGGGTTCCATCATGTGCTAG | -0.287
TTTATTTTTTTTATTTATAAGTGCTAG | 1.72
GACGGTATCCTTCTCCTGAAGTGCTAG | 6.73
ATTTAAAACAACTTTCAAAGGGTGCTA | 0.603
TCAGCTCCAGGTTCTCTGACTGTGCTA | -0.42
TCATTTTTGCTTACGATGCAGTGCTAG | 1.51
CTTTTTCCCTATTATATATATGTGCTA | 6.29
TTACGACTGGGGTATCGGTTAGTGCTA | 0.197
TTAGATTTCAGACTGGAGTAGTGCTAG | 0.532
TTAGGTATCAGTATCGGTTAGTGCTAG | 4.64
ACAGGTTCTCTTTTATTTTTGTGCTAG | 2.4
TTAGGTATCGGGTCTGGGTTAGTGCTA | 1.98
CTATTTTTCCCCTGCACTCAGTGCTAG | 1.61

Some of these lines once more (set 2):
Oligonucleotide | median fluorescence [a.u.]
GAGGCCGGCTGACGCCAGCCTCCTGGCTGGCGTCAGCCGGCCTCACACTC (5mC at 15) | 6930
GAGGCCGACGACGTGGTGCCTCCTGGCACCACGTCGTCGGCCTCACACTC (5mC at 9 29 35) | 5200
GAGGCCGGATGACGTCCGCCTCCTGGCGGACGTCATCCGGCCTCACACTC (5mC at 17) | 7570
GAGGCCTGCTGACGTCAGCCTCCTGGCTGACGTCAGCAGGCCTCACACTC | 16800
GAGGCCGGATGCGGTCAGCCTCCTGGCTGACCGCATCCGGCCTCACACTC (5mC at 32) | 2800
GAGGCCGCGGACGTCGTGCCTCCTGGCACGACGTCCGCGGCCTCACACTC (5mC at 8 15 29 35) | 3560
GAGGCCGGCTGCGGTCAGCCTCCTGGCTGACCGCAGCCGGCCTCACACTC (5mC at 12 32) | 2620
GAGGCCGGATGACGTCAGCCTCCTGGCTGACGTCATCCGGCCTCACACTC | 22900
